Assay results collected from several papers.
Numbered parts are unrelated; each lists some results of a single study. Substitutions count along the parent as printed.

Series 1
Target: POU domain, class 6, transcription factor 1, POU and homeodomain (POU6F1, Homo sapiens, UniProt Q14863, residues 311-611)
Method: protein-binding microarray
Form: hairpin DNA
Sample: in vitro
Tested at: not given
Setting: whole hairpin DNA, median over replicate spots
Relative to: not given
Direction: higher = stronger binding
Shared flanks, not repeated: GAGGCCA … TGGCCTCACACTCTT
Target sequence (chain): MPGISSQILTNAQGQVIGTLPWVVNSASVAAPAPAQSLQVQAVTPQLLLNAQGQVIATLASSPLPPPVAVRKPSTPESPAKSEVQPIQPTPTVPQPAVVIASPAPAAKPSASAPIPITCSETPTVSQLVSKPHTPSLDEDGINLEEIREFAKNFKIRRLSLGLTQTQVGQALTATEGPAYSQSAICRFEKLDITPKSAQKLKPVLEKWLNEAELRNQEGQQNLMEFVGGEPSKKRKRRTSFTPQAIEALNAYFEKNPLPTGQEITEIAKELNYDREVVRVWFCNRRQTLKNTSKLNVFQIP
`TAATTAGGGGCCTCCTGGCCCCTAATTA (5mC at 27)` gave a median fluorescence of 1380 a.u.
With `TAATGAGTTGCCTCCTGGCAACTCATTA` the median fluorescence was 2590 a.u.
With `TAATGGGGTGCCTCCTGGCACCCCATTA (5mC at 30)` the median fluorescence was 1940 a.u.
`TAATGAGGCGCCTCCTGGCGCCTCATTA` has a median fluorescence of 2000 a.u.
For `TAATGAGATGCCTCCTGGCATCTCATTA`, the median fluorescence was 12200 a.u.
`CGATTAGGTGCCTCCTGGCACCTAATCG (5mC at 34)` gave a median fluorescence of 368 a.u.
For `TAACTAGGTGCCTCCTGGCACCTAGTTA (5mC at 11)`, the median fluorescence was 622 a.u.
For `TAATGAGGTGCCTCCTGGCACCTCATTA (5mC at 28)`, the median fluorescence was 2440 a.u.

Series 2
Target: CCND3, cyclin fold, Cln2 fusion (human)
Method: yeast growth competition, sequencing
Sample: yeast
Setting: weak parent motif
Relative to: not given
Direction: higher = stronger binding
Starting sequence: viral docking peptide; CKVKRKLFGSENI
`CKVKRKAFGSENI [L7A]` — result for “normalised enrichment score”: 0.159.
`CKVKRKLFGSANI [E11A]` — result for “normalised enrichment score”: 0.148.
`CKVKRKLAGSENI [F8A]`: “normalised enrichment score” 0.139.
`CKVKAKAFGSENI [R5A L7A]`: “normalised enrichment score” 0.169.
`CKVKRALFGSENI [K6A]` — result for “normalised enrichment score”: 0.111.
Under “normalised enrichment score”, `CKVKKKLLGSENI [R5K F8L]` is recorded as -0.125.
Under “normalised enrichment score”, `CKVKRKLLGSENI [F8L]` is recorded as -0.0479.
`CAVKRKLFGSENI [K2A]` — result for “normalised enrichment score”: 0.194.
`CKVKRKLFGSEAI [N12A]`: “normalised enrichment score” 0.12.

Series 3
Target: HLA class I histocompatibility antigen, A alpha chain, allele A*80:01 (Homo sapiens, UniProt P04439)
Effect on: peptide-MHC binding
Form: peptide
Tested at: concentration not given
`EIPDVLNSL` — result for binding: “inactive”.
`DRLASTVIY`: binding “inactive”.
`WVIDTLNGI` — result for binding: “inactive”.
`LAKSVFNSL` — result for binding: “inactive”.
For `KEAVNHFHL`, binding read “inactive”.
`QQRPDLILV`: binding “inactive”.
`MSPHRVPNY`: binding “inactive”.
Under binding, `YILGFAIPI` is recorded as “inactive”.
Under binding, `YNAKRIETV` is recorded as “inactive”.
`SCINGQCPY` — result for binding: “inactive”.
`AALEGLSGF`: binding “inactive”.
`TVAPPAPVY`: binding “inactive”.
For `AVGVVCTGL`, binding read “inactive”.
For `SVFALLPPQ`, binding read “inactive”.
Under binding, `EVDQTKIQY` is recorded as “inactive”.
For `WLGHPFTPV`, binding read “inactive”.
For `LVKSAWLSL`, binding read “inactive”.

Series 4
Target: Histone acetyltransferase KAT6A, both winged helices, GST fusion (KAT6A, Homo sapiens, UniProt Q92794, residues 1-181)
Method: protein binding microarray
Form: double-stranded DNA, one strand shown
Sample: in vitro
Tested at: not given
Setting: 8-mer, flanks averaged, mean of 2 arrays, mostly near background
Relative to: not given
Direction: higher = stronger binding
Residues (chain): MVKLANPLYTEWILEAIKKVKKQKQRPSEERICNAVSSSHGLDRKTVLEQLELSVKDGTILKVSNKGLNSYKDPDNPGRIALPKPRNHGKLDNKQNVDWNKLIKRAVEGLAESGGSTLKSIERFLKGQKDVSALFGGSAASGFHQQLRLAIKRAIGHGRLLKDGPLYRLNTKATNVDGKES
The E-score of `GCCTCAAA` is reported as -0.0558.
`CAACGCGA` has an E-score of 0.137.
`CATCCTCC` gave an E-score of -0.0165.
The E-score of `CCCACCGC` is reported as 0.23.
`AGTAGACT` gave an E-score of -0.177.
`CCAATCAC` gave an E-score of -0.107.
With `CAATTACG` the E-score was 0.0907.
`ATAGGGTG` gave an E-score of -0.187.

Excerpt of the above (series 1):
With `TAATGAGTTGCCTCCTGGCAACTCATTA` the median fluorescence was 2590 a.u.
`TAATTAGGGGCCTCCTGGCCCCTAATTA (5mC at 27)` gave a median fluorescence of 1380 a.u.
`TAATGAGGCGCCTCCTGGCGCCTCATTA` has a median fluorescence of 2000 a.u.
